Measurements of several laboratories.
Several values in a cell are separate wells, animals, samples, runs or records. Numbers after ± are the reported error. ≈ marks a conversion by molar mass, not a printed value.
gag-pol integrase: Gag-Pol polyprotein, integrase (gag-pol, Human immunodeficiency virus 1, UniProt P12497)
BCHE: Cholinesterase (BCHE, Homo sapiens, UniProt P06276)
Chain of UniProt P06276 (whole entry, looked up): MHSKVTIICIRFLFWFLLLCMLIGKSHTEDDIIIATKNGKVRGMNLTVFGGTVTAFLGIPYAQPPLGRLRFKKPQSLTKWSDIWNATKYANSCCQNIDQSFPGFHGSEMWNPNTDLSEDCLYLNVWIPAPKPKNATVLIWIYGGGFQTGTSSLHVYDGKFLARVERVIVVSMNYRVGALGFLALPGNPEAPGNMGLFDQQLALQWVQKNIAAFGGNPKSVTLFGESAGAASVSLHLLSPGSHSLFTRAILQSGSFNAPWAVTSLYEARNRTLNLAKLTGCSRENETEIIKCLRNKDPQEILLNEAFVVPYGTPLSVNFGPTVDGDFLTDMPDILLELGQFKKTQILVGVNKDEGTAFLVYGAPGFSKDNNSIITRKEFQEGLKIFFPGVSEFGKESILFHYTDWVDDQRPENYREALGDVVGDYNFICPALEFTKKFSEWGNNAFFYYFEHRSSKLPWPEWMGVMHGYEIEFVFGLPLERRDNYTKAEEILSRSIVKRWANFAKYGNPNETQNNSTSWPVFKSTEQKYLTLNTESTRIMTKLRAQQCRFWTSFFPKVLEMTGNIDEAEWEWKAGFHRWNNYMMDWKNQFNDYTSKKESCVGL

| SMILES | tested on | test | test system | setting | scale | quantity | result |
| --- | --- | --- | --- | --- | --- | --- | --- |
| CN(C)c1nc(NCc2cccc(F)c2)c(/N=N/c2ccc(Cl)cc2)c(N(C)C)n1 | Ostrinia furnacalis | leaf dipping | – | 50 mg/L, 96 h | – | mortality | 66.7 ± 5.8% |
| Cc1ccccc1C(=O)NN=Cc1ccc(O)c(Br)c1 | Cryptococcus neoformans | – | – | concentration not given, added: caspofungin | – | MIC in combination | 0.5 µg/mL |
| COc1ccccc1N1CCN(/N=C/c2ccc(Cl)c([N+](=O)[O-])c2)CC1 | gag-pol integrase | 3'-processing activity, inhibitor | – | wild-type integrase | – | IC50 | > 100000 nM |
| Cc1cc(Cl)cc(S(C)(=O)=O)c1NC(=O)c1cc(Br)nn1-c1ncccc1Cl | Spodoptera litura | leaf-dip | third instar larvae | 12.5 ppm, 24 h | – | mortality | 0% |
| CC(C)C[C@@H]1NC(=O)CNC(=O)[C@@H](Cc2ccccc2)NC(=O)[C@H](CCCCN)NC(=O)[C@@H](CCCN)NC(=O)[C@@H](C(C)C)NC1=O | Naegleria fowleri | – | – | trophozoites | – | IC90 | > 16 µg/mL |
| C[C@]12C=CC(=O)C=C1CC[C@@H]1C2=CC[C@]2(C)[C@@H](C(=O)CN3CCN(c4cc(N5CCCC5)nc(N5CCCC5)n4)CC3)CC[C@@H]12 | Plasmodium falciparum | – | Dd2 | – | – | IC50 | 10000 nM |
| CS(=O)(=O)CCCn1c(Cn2c(=O)n(CC(F)(F)F)c3ccncc32)cc2cc(Cl)ccc21 | respiratory syncytial virus | RT-qPCR | hospitalized infants 1-24 months, nasal swab | oral, 1-9 mg/kg daily, day 5, all doses combined | relative to: baseline | LS mean viral load change | -3.67 log10 copies/mL |
| CCCCCCCCCC(=O)N[C@@H](Cc1c[nH]c2ccccc12)C(=O)N[C@H](CC(N)=O)C(=O)N[C@@H](CC(=O)O)C(=O)N[C@@H]1C(=O)NCC(=O)N[C@@H](CCCN)C(=O)N[C@@H](CC(=O)O)C(=O)N[C@H](C)C(=O)N[C@@H](CC(=O)O)C(=O)NCC(=O)N[C@H](CO)C(=O)N[C@@H]([C@H](C)CC(=O)O)C(=O)N[C@@H](CC(=O)c2ccccc2N)C(=O)O[C@@H]1C | Streptococcus pneumoniae | – | – | – | – | MIC90 | 0.125 µg/mL (≈ 0.0771 µM) |
| COC(=O)c1c(-c2cc(OC)c(OC)c(OC)c2)c2ccc(OCc3ccccn3)cc2c(=O)n1-c1ccc(N)cc1 | Plasmodium falciparum | – | 7G8 | – | – | IC50 | 794 nM |
| Nc1cc(Oc2ccccc2)ccc1-c1noc(-c2ccc(O)cc2)n1 | Clostridioides difficile | spore germination | ATCC 43255 | 45 µM, 1 h | – | inhibition | 14 to 39% |
| Cn1nc(C(=O)N2CCC(c3[nH]ncc3Cc3ccccc3)CC2)c2ccccc2c1=O | Plasmodium falciparum | parasite growth, SYBR Green | 3D7 wild type | 72 h | – | EC50 | 157 ± 37 nM |
| C#Cc1ccc(C=NNC(=O)c2ccc(Br)cc2Br)c(O)c1 | Cryptococcus neoformans | – | H99 | unit not given, added: fluconazole | lower = more synergy | FICI | 1.12 |
| CC(=O)c1c(Nc2c(C)cc(C)cc2C)oc(C)cc1=O | Plasmodium falciparum | parasite growth, SYBR Green | – | 72 h | relative to: 3D7-E182D over 3D7 | EC50 ratio | 0.8 |
| CC(C)[C@@H]1NC(=O)[C@@H](CCCCN)NC(=O)[C@H](CCCCN)NC(=O)[C@@H](CCCN)NC(=O)[C@H](C)NC(=O)[C@H](Cc2c[nH]c3ccccc23)NC(=O)[C@@H](Cc2ccccc2)NC1=O | Acanthamoeba castellanii | – | – | trophozoites | – | IC90 | > 16 µg/mL |
| CC(C)(C)C1CCN(C(=O)n2ncc(C(O)(c3ccccc3)c3ccccc3)n2)CC1 | BCHE | inhibitor | – | – | – | IC50 | 1180 ± 200 nM |
| CCCCN1[C@@H]2CC[C@H]1C[C@@H](OC(c1ccc(F)cc1)c1ccc(F)cc1)C2 | Plasmodium falciparum | – | 7G8 | – | – | IC50 | 1580 nM |
| C[C@@H](O)[C@H]1C(=O)N2C(C(=O)O)=C(S[C@@H]3CN[C@H](C(=O)N(C)C)C3)[C@H](C)[C@H]12 | Klebsiella pneumoniae | – | NDM-producing, neutropenic BALB/c mouse, thigh infection, thigh | dose not given, 4 h | – | bacterial burden, mean | 8.3 log10 CFU/thigh |
| O=c1cnn([C@@H]2O[C@H](CO)[C@@H](O)[C@H]2O)c(=O)[nH]1 | respiratory syncytial virus | – | RSV-infected cells | concentration not given | – | apoptosis | decreased |
| NCCCC[C@H]1NC(=O)[C@H](Cc2ccccc2)NC(=O)[C@H](Cc2c[nH]c3ccccc23)NC(=O)[C@@H](Cc2ccccc2)NC(=O)[C@H](Cc2ccccc2)NC(=O)[C@@H](CCCN)NC(=O)[C@H](CCCN)NC1=O | Acanthamoeba castellanii | – | – | trophozoites | – | IC90 | > 16 µg/mL |
| Oc1ccc(-c2nc(-c3ccc(OC4CCCC4)cc3)no2)cc1 | Clostridioides difficile | – | ATCC 43255 | 45 µM, 1 h, spores | – | inhibition | 14 to 39% |
| CNC(=O)c1cc(Cl)cc(C)c1NC(=O)c1cc(Br)nn1-c1ncccc1Cl | Spodoptera litura | leaf-dip | third instar larvae | 12.5 ppm, 24 h | – | mortality | 10% |
| Cn1c(=O)ccc2ccc(F)c(CCNC[C@H]3CN(c4cnc5c(n4)NC(=O)CO5)C(=O)O3)c21 | Clostridioides difficile | – | – | – | – | MIC50 | < 0.015 µg/mL |

| SMILES | tested on | test | test system | setting | scale | quantity | result |
| --- | --- | --- | --- | --- | --- | --- | --- |
| Cc1ccc2c(c1)CC[C@@](CCN(C)CCCc1nc3ccccc3[nH]1)(OC(=O)C1CC1)[C@H]2C(C)C | Plasmodium falciparum | – | W2 | – | – | IC50 | 794 nM |
| COC(=O)N[C@H](C(=O)N1CCC[C@H]1c1ncc(-c2ccc(-c3ccc(-c4cnc([C@@H]5CCCN5C(=O)[C@@H](NC(=O)OC)C(C)C)[nH]4)cc3)cc2)[nH]1)C(C)C | Hepatitis C virus | – | replicon cells | 75% effect level, added: NS5B inhibitor, ratio 1:1 | – | combination index | 0.8 |
| O=C1C(O)=Cc2ccccc2/C1=N\Nc1ccc(Cl)cc1 | gag-pol integrase | 3'-processing activity, inhibitor | – | wild-type integrase | – | IC50 | > 100000 nM |
| C=CCc1ccccc1OCC(O)CNC1(C)CCC(C(C)(C)NC(=O)CBr)CC1 (centres unmarked) | Plasmodium falciparum | – | HB3 | – | – | IC50 | 3980 nM |
| C[C@H]1c2cccc(O)c2C(=O)C2=C(O)[C@]3(O)C(=O)C(C(N)=O)=C(O)[C@@H](N(C)C)[C@@H]3[C@@H](O)[C@@H]21 | Streptococcus pneumoniae | – | – | – | – | MIC90 | 8 µg/mL (≈ 18 µM) |
| CC(C)OC(=O)c1cc2c(OCC(O)CNC(C)(C)C)cccc2[nH]1 (centres unmarked) | BCHE | inhibitor | – | – | – | IC50 | 4910 ± 510 nM |
| NCCC[C@@H]1NC(=O)[C@@H](CCCN)NC(=O)[C@H](Cc2ccccc2)NC(=O)[C@@H](Cc2ccccc2)NC(=O)[C@H](Cc2ccccc2)NC(=O)[C@@H](CCCN)NC1=O | Acanthamoeba castellanii | – | – | trophozoites | – | IC90 | > 16 µg/mL |
| Cc1c2c(nn1C)CSCc1cc(n(C)n1)CSc1cc(c3ccccc3c1)OCCCc1c(C(=O)O)n(C)c3c-2c(Cl)ccc13 | Staphylococcus aureus | label-free quantitative proteomics, item: SAOUHSC_00435 protein | SA113 | concentration not given | relative to: untreated control | fold change | 21.9 |
| CC(C)[C@H]1NC(=O)[C@H](Cc2ccccc2)NC(=O)CNC(=O)[C@@H](Cc2c[nH]c3ccccc23)NC(=O)[C@H](CCCCN)NC(=O)[C@@H](CCCN)NC1=O | Naegleria fowleri | – | – | trophozoites | – | IC50 | > 16 µg/mL |
| C#Cc1ccc(O)c(C=NNC(=O)c2ccc(Br)c(Br)c2)c1 | Cryptococcus neoformans | – | H99 | unit not given, added: amphotericin B | lower = more synergy | FICI | 1.06 |
| C[C@@H](O)[C@@H]1NC(=O)[C@@H](CCCCN)NC(=O)[C@H](CCCN)NC(=O)[C@@H](CCCN)NC(=O)[C@H](CO)NC(=O)[C@H](Cc2c[nH]c3ccccc23)NC(=O)[C@@H](Cc2c[nH]c3ccccc23)NC1=O | Acanthamoeba castellanii | – | – | trophozoites | – | IC50 | > 16 µg/mL |
| CN(C)CC[C@@H](c1ccc(Br)cc1)c1ccccn1 | Plasmodium falciparum | – | 7G8 | – | – | IC50 | 1580 nM |
| C#Cc1cccc(C=NNC(=O)c2ccc(Br)cc2)c1O | Cryptococcus neoformans | – | H99 | unit not given, added: fluconazole | lower = more synergy | FICI | 1.67 |
| C=C(CN(C(=O)c1c(C(F)F)nn(C)c1F)C1CC1)c1ccc(Cl)cc1Cl | Alternaria solani | – | – | 1.56 mg/L | – | colony diameter | 15 mm and 14 mm and 13 mm and 12 mm |
| CN(C)CCCN1c2ccccc2Sc2ccccc21 | Plasmodium falciparum | – | 3D7 | – | – | IC50 | 12600 nM |
| Cc1cc(Nc2ccc(C)c(Cl)c2)n2nc(C(F)(F)F)nc2n1 | Plasmodium falciparum | parasite growth, SYBR Green | 3D7 wild type | 72 h | – | EC50 | 37.3 ± 4.4 nM |
| CC(C)[C@H]1NC(=O)[C@H](Cc2ccccc2)NC(=O)CNC(=O)[C@@H](Cc2ccccc2)NC(=O)[C@H](CCC(N)=O)NC(=O)[C@@H](CCCN)NC1=O | Acanthamoeba castellanii | – | – | trophozoites | – | IC50 | 15.8 µg/mL |
| COc1cc(N[C@H](C(=O)c2c[nH]c3ccc(OC(F)(F)F)cc23)c2ccc(Cl)cc2OC)cc(S(C)(=O)=O)c1 | dengue virus 2 | viral infection, luciferase reporter virus | – | 0.3 nM, 48 h | – | inhibition | 100% |
| Cc1nc(Nc2ccc(C)c(Cl)c2)c2c(C)noc2n1 | Plasmodium falciparum | parasite growth | – | – | – | EC50 | 6320 ± 3200 nM |
| O=C(NC(=O)c1c(F)cccc1F)Nc1ccc(Cl)cc1 | Ostrinia furnacalis | leaf dipping | – | 500 mg/L, 96 h | – | mortality | 89.3 ± 3.5% |
| COc1ccccc1Cn1ccnc1SCC(=O)Nc1cccc(C(F)(F)F)c1 | Plasmodium falciparum | parasite growth, SYBR Green | 3D7 DHODH E182D | 72 h | – | EC50 | 5230 ± 1200 nM |
| O=C(NN=Cc1ccc(O)c(Br)c1)c1cccc(Br)c1 | Cryptococcus neoformans | – | – | added: tunicamycin | lower = more synergistic | FIC index | 1 |

Some of these lines once more:
| SMILES | tested on | test | test system | setting | scale | quantity | result |
| --- | --- | --- | --- | --- | --- | --- | --- |
| C[C@H]1c2cccc(O)c2C(=O)C2=C(O)[C@]3(O)C(=O)C(C(N)=O)=C(O)[C@@H](N(C)C)[C@@H]3[C@@H](O)[C@@H]21 | Streptococcus pneumoniae | – | – | – | – | MIC90 | 8 µg/mL (≈ 18 µM) |
| CC(C)OC(=O)c1cc2c(OCC(O)CNC(C)(C)C)cccc2[nH]1 (centres unmarked) | BCHE | inhibitor | – | – | – | IC50 | 4910 ± 510 nM |
| NCCC[C@@H]1NC(=O)[C@@H](CCCN)NC(=O)[C@H](Cc2ccccc2)NC(=O)[C@@H](Cc2ccccc2)NC(=O)[C@H](Cc2ccccc2)NC(=O)[C@@H](CCCN)NC1=O | Acanthamoeba castellanii | – | – | trophozoites | – | IC90 | > 16 µg/mL |
| Cc1c2c(nn1C)CSCc1cc(n(C)n1)CSc1cc(c3ccccc3c1)OCCCc1c(C(=O)O)n(C)c3c-2c(Cl)ccc13 | Staphylococcus aureus | label-free quantitative proteomics, item: SAOUHSC_00435 protein | SA113 | concentration not given | relative to: untreated control | fold change | 21.9 |
